Results from different studies.
Each line is one published result; not all experiments were run side by side. ± marks the error that the study gave. Ends that are not written are not given here.
UniProt P27487, sequence (whole entry, looked up): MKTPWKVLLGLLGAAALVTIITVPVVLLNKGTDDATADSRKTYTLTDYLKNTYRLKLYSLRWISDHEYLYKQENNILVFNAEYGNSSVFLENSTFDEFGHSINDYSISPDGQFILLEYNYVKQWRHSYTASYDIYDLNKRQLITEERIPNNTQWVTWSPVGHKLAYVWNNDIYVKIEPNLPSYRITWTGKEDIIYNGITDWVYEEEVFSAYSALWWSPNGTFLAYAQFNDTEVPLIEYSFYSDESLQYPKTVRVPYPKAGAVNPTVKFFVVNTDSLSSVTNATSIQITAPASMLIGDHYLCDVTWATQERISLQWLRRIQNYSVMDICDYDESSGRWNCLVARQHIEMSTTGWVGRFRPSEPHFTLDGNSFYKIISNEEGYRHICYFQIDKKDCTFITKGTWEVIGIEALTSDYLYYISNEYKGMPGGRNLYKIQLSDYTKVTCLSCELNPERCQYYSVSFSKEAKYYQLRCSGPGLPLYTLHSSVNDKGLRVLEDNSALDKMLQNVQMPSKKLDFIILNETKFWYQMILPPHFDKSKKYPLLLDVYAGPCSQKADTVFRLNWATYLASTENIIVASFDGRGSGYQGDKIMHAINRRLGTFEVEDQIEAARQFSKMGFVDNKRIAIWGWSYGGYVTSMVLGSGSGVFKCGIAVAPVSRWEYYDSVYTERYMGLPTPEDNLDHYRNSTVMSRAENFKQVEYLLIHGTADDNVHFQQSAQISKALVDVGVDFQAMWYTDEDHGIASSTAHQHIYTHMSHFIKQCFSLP

For `CC[C@H]1CN2CCc3cc(OC)c(OC)cc3[C@@H]2C[C@@H]1C[C@@H]1c2cc(OC)c(OC)cc2CCN1C(=O)[C@@H]1CCCN1C(=O)[C@H](C)N`, the emetine released was 0% (DPP4 (Homo sapiens, UniProt P27487); substrate, HPLC-MS; 500 µM, 24 h, pH 7.8, 37 °C, 1% DMSO, together with: DPPIV 30 nM).
For `N=C(N)NCCC[C@@H]1NC(=O)[C@H](CCCCNC(=O)[C@H](CC(=O)O)NC(=O)[C@H](CC(=O)O)NC(=O)[C@H](CC(=O)O)NC(=O)CC[C@H](NC(=O)CCOCCOCCOCCOCCNC(=O)c2ccc(NN)nc2)C(=O)N[C@@H](CC(=O)O)C(=O)N[C@@H](CC(=O)O)C(=O)N[C@@H](CC(=O)O)C(=O)NCCCC[C@@H]2NC(=O)[C@@H](Cc3ccccc3)NC(=O)[C@H](CC(=O)O)NC(=O)CNC(=O)[C@H](CCCNC(=N)N)NC2=O)NC(=O)[C@@H](Cc2ccccc2)NC(=O)[C@H](CC(=O)O)NC(=O)CNC1=O` [technetium-99m labelled], the tissue uptake was 1.23 ± 0.38 %ID/g (γ-counting; female athymic nude mice, U-87 MG xenograft, blood; intravenous, 0.5 h).
`CCN1C(=CC=CC=CC2=[N+](CCCCCC(=O)NCCCC[C@H](NC(=O)CN3CCN(CC(=O)O)CCN(CC(=O)O)CCN(CC(=O)O)CC3)C(=O)NCC(=O)NCC(=O)N[C@@H](Cc3ccc(O)cc3)C(=O)NCC(=O)N[C@H]3CSSC[C@@H]4NC(=O)CNC(=O)[C@H](C)NC(=O)[C@H](CC(C)C)NC(=O)[C@@H]5CSSC[C@@H](C(=O)NCC(N)=O)NC(=O)[C@H](Cc6ccccc6)NC(=O)CNC(=O)[C@H](CC(N)=O)NC(=O)[C@@H]6CCCN6C(=O)CNC(=O)[C@H](CSSC[C@H](NC(=O)[C@H](CO)NC(=O)[C@H]([C@@H](C)O)NC(=O)[C@@H]6CCCN6C(=O)[C@H](C)NC(=O)[C@H](Cc6c[nH]c7ccccc67)NC(=O)[C@H](CC(=O)O)NC(=O)CNC(=O)[C@H](CCCNC(=N)N)NC(=O)CNC(=O)[C@H](CCC(N)=O)NC(=O)[C@@H]6CCCN6C3=O)C(=O)N[C@@H](CO)C(=O)N[C@@H](CCC(N)=O)C(=O)N[C@@H](CC(=O)O)C(=O)N[C@@H](CO)C(=O)N[C@@H](CC(=O)O)C(=O)N5)NC(=O)[C@H](C(C)C)NC4=O)c3ccc4c(S(=O)(=O)[O-])cc(S(=O)(=O)O)cc4c3C2(C)C)C(C)(C)c2c1ccc1c(S(=O)(=O)O)cc(S(=O)(=O)O)cc21` (single isomer, unassigned) [copper-64 labelled] has a tissue uptake of 78.4 ± 13.9 %ID/g (nude mouse, kidney; intravenous, 100 µCi, 1 h).
For `melittin`, the partitioning enthalpy was -10.4 kcal/mol (isothermal titration calorimetry; POPC/POPG LUVs 75:25%; 100 µM, pH 7.0, 40 °C).
The terminal half-life of `COc1cccc2c1C(=O)c1c(O)c3c(c(O)c1C2=O)C[C@@](O)(C(=O)CO)C[C@@H]3O[C@H]1C[C@H](NC(=O)[C@H](CC(C)C)NC(=O)[C@H](C)NC(=O)[C@H](CC(C)C)NC(=O)CCNC(=O)CCC(=O)O)[C@H](O)[C@H](C)O1` is reported as 0.5 h (mouse, E0771 tumour-bearing, heart; intravenous, 92 µmol/kg).
With `amyloid β-peptide (1–28)` the peptide hydrolysed was 99% (trypsin; substrate, LC-MS; 10 µM, 4 h, pH 7.4, together with: angiotensin III 20 µM, MINP(A)).
For `COc1cccc2c1C(=O)c1c(O)c3c(c(O)c1C2=O)C[C@@](O)(C(=O)CO)C[C@@H]3O[C@H]1C[C@H](NC(=O)[C@@H]2CCCN2C(=O)CNC(=O)[C@H](CC(C)C)NC(=O)[C@H](C)NC(=O)CP(=O)(O)O)[C@H](O)[C@H](C)O1`, the terminal half-life was 16.8 h (mouse, E0771 tumour-bearing, liver; intravenous, 92 µmol/kg).
Under “adverse event incidence”, `KCNTATCATQRLANFLVHSSNNFGPILPPTNVGSNTY (Pramlintide; not fully specified (C-terminus, bridges); cysteine pairing not given here; sequence looked up)` is recorded as 5.4% (item: Influenza; peptide, obese or overweight humans; concentration not given, ITT population).
`MilB F17Y (Streptomyces rimofaciens)` gave a Km of 1200 µM (Nc1ccn([C@H]2C[C@H](O)[C@@H](COP(=O)(O)O)O2)c(=O)n1; steady-state kinetics; pH 7.5, 37 °C).
With `bop full-length with retinal D85E/D96Q (Halobacterium salinarum)` the pKa was 9.7 (UV-vis, item: Glu85; membranes; resting state, numbering of the source).
`N=C(N)NCCC[C@@H]1NC(=O)[C@H](CCCCNC(=O)CNC(=O)CNC(=O)CNC(=O)CC[C@H](NC(=O)CCOCCOCCOCCOCCNC(=O)c2ccc(NN)nc2)C(=O)NCC(=O)NCC(=O)NCC(=O)NCCCC[C@@H]2NC(=O)[C@@H](Cc3ccccc3)NC(=O)[C@H](CC(=O)O)NC(=O)CNC(=O)[C@H](CCCNC(=N)N)NC2=O)NC(=O)[C@@H](Cc2ccccc2)NC(=O)[C@H](CC(=O)O)NC(=O)CNC1=O` [technetium-99m labelled] has a tissue uptake of 2.77 ± 0.35 %ID/g (γ-counting; female athymic nude mice, U-87 MG xenograft, liver; intravenous, 1 h).

Repeated from above:
`MilB F17Y (Streptomyces rimofaciens)` gave a Km of 1200 µM (Nc1ccn([C@H]2C[C@H](O)[C@@H](COP(=O)(O)O)O2)c(=O)n1; steady-state kinetics; pH 7.5, 37 °C).
